{"data": "Experimental data collected from several papers", "note": "Lines come from different studies, so protocols differ. Numbers after ± are the reported error."}
{"Structure (SMILES)": "C[C@H](CCC=O)[C@@H]1CC[C@]2(C)C3=C(CC[C@@]12C)[C@@]1(C)CC[C@H](O)C(C)(C)[C@@H]1CC3", "cell line": "HCT-15", "assay": "cell growth or viability, SRB", "conditions": "50 µM", "measurement": "inhibition", "value": "74.6%"}
{"Structure (SMILES)": "COc1ccc(NC(=O)N2CCCN3CCC(c4ccc(C#Cc5ccccc5)cc4)C3C2)cc1 (stereo not shown)", "cell line": "MDCK-MDR1", "test system": "Caco-2", "measurement": "Papp B→A", "value": "1.28 ×10⁻⁶ cm/s"}
{"Structure (SMILES)": "Nc1ncnc2c1ncn2[C@@H]1O[C@H](CO)[C@@H](O)[C@H]1F", "cell line": "SkMC", "assay": "sulforhodamine B", "conditions": "11 days, glucose medium", "measurement": "CC50", "value": "114 µM"}
{"Structure (SMILES)": "Cc1cc(C#N)cc(C)c1Oc1nc(NC2CCN(Cc3ccc(Cl)cc3)CC2)nc2ccccc12", "cell line": "TZM-bl", "assay": "cell growth or viability, XTT", "measurement": "CC50", "value": "> 0.251 µM"}
{"Structure (SMILES)": "CC(=O)N[C@H](C(=O)N[C@H](C(=O)N[C@@H](CCCNC(=N)N)C(=O)N1Cc2ccccc2C[C@H]1C(=O)N[C@@H](Cc1ccccc1)C(N)=O)C1CCCCC1)C(C)C", "cell line": "human PBMC", "assay": "Bio-Plex multiplex, refers to: IL-8", "conditions": "500 µg/mL, 24 h", "measurement": "cytokine level", "value": "13500 ± 14200 pg/mL"}
{"Structure (SMILES)": "CC(C)=CCC1CC(=O)C(C)=CC2C=C(C)CC(c3ccccc3)C2C(=O)C2=C(O)C(C)(CC=C1C)C(=O)C(C)(C)C2=O (stereo not shown)", "cell line": "HEp-2", "conditions": "concentration not given, at antiviral concentrations", "measurement": "cytotoxicity", "value": "not toxic"}
{"Structure (SMILES)": "CC(=O)[O-].F[P-](F)(F)(F)(F)F.[Co+2].c1ccc(CN2CCCNCCN(Cc3ccccc3)CCCNCC2)cc1", "cell line": "THP-1", "assay": "cell growth or viability", "measurement": "IC50", "value": "> 15 µM"}
{"Structure (SMILES)": "Cc1nc2cccc(OCC(C)(C)C(=O)NC(C)C)c2c(N)c1C(=O)[O-].[Na+]", "cell line": "human peripheral blood lymphocytes", "conditions": "500 µg/mL, all three test conditions", "measurement": "relative mitotic index", "value": "≥ 75%"}
{"Structure (SMILES)": "C=Cc1c(C)c2cc3nc(cc4[nH]c(cc5nc(cc1[nH]2)C(C)=C5CCC(=O)NC(CC(=O)[O-])C(=O)[O-])c(CCC(=O)NC(CC(=O)[O-])C(=O)[O-])c4C)C(C)(O)C3=CC=NO.[Na+].[Na+].[Na+].[Na+] (stereo not shown)", "cell line": "T.Tn cells", "conditions": "50 µg/mL, 4°C", "measurement": "cellular content", "value": "20 ng/mg protein"}
{"Structure (SMILES)": "COC1C=COC2(C)Oc3c(C)c(O)c4c(c3C2=O)C2=NC3(CCN(CC(C)C)CC3)NC2=C(NC(=O)C(C)=CC=CC(C)C(O)C(C)C(O)C(C)C(OC(=O)c2cccnc2)C1C)C4=O (stereo not shown)", "cell line": "THP-1 derived macrophages", "scale": "baseline: intracellular over extracellular", "measurement": "intracellular/extracellular ratio", "value": 44}
{"Structure (SMILES)": "[99Tc+].[C-]#[N+]CC(C)(C)OC.[C-]#[N+]CC(C)(C)OC.[C-]#[N+]CC(C)(C)OC.[C-]#[N+]CC(C)(C)OC.[C-]#[N+]CC(C)(C)OC.[C-]#[N+]CC(C)(C)OC", "cell line": "rat sandwich-cultured hepatocytes", "conditions": "20 min, culture day 4", "scale": "baseline: preloaded amount", "measurement": "basolateral efflux", "value": "40.5 ± 7.6%"}
{"Structure (SMILES)": "O=c1c(-c2nc3ccccc3s2)cc2c(n1NS(=O)(=O)c1ccc(Cl)cc1)CCCCCC2", "cell line": "HEp-2", "assay": "trypan blue", "conditions": "72 h", "measurement": "maximum non-toxic concentration", "value": "130 µg/mL"}
{"Structure (SMILES)": "O=c1[nH]cc(C(c2ccccc2Br)c2c[nH]c(=O)[nH]c2=O)c(=O)[nH]1", "cell line": "Ba/F3", "conditions": "1 µg/mL", "measurement": "cytotoxicity", "value": "not toxic"}
{"Structure (SMILES)": "O=c1ccn([C@@H]2O[C@H](CO)[C@@H](O)[C@H]2F)c(=O)[nH]1", "cell line": "human cell line panel", "conditions": "up to 250 µM, 11 d", "measurement": "cytotoxicity", "value": "not toxic"}
{"Structure (SMILES)": "C=CC(=C)CC[C@]1(C)[C@H](C)CC[C@@]23C(=C[C@H](OC(=O)C(C)C)C[C@@H]12)[C@@H](OC(C)=O)O[C@H]3OC(C)=O", "cell line": "KB-VIN (P-gp-overexpressing)", "assay": "cell growth, SRB", "measurement": "IC50", "value": "26.6 µM"}
{"Structure (SMILES)": "Cc1cc(C#N)cc(C)c1Oc1nc(NC2CCN(Cc3ccc(C#N)cc3)CC2)nc2ccccc12", "cell line": "TZM-bl", "assay": "cell growth or viability, XTT", "measurement": "CC50", "value": "> 0.256 µM"}
{"Structure (SMILES)": "Cc1cc2c(cc1C1(c3ncc(C(=O)O)cn3)CC1)C(C)(C)CCC2(C)C", "cell line": "TK6", "assay": "cytotoxicity, GreenScreen", "conditions": "without S9", "measurement": "lowest effective concentration", "value": "8.57 µg/mL"}
{"Structure (SMILES)": "CC(=O)OC[C@H]1O[C@@H](Sc2sc(C(=O)c3ccc(C)cc3)c(N)c2-c2nc3ccccc3s2)[C@H](OC(C)=O)[C@@H](OC(C)=O)[C@H]1OC(C)=O", "cell line": "HEp-2", "assay": "cytotoxicity", "conditions": "72 h", "measurement": "maximum non-toxic concentration", "value": "100 µg/mL"}
{"Structure (SMILES)": "O=c1c2sccc2n(CC2COc3ccccc3O2)c(=O)n1O (stereo not shown)", "cell line": "SW-620", "assay": "colony formation", "conditions": "10 to 14 days", "measurement": "EC50", "value": "11 µM"}
{"note": "For quick reference, copied from above:"}
{"Structure (SMILES)": "[99Tc+].[C-]#[N+]CC(C)(C)OC.[C-]#[N+]CC(C)(C)OC.[C-]#[N+]CC(C)(C)OC.[C-]#[N+]CC(C)(C)OC.[C-]#[N+]CC(C)(C)OC.[C-]#[N+]CC(C)(C)OC", "cell line": "rat sandwich-cultured hepatocytes", "conditions": "20 min, culture day 4", "scale": "baseline: preloaded amount", "measurement": "basolateral efflux", "value": "40.5 ± 7.6%"}
{"Structure (SMILES)": "CC(=O)N[C@H](C(=O)N[C@H](C(=O)N[C@@H](CCCNC(=N)N)C(=O)N1Cc2ccccc2C[C@H]1C(=O)N[C@@H](Cc1ccccc1)C(N)=O)C1CCCCC1)C(C)C", "cell line": "human PBMC", "assay": "Bio-Plex multiplex, refers to: IL-8", "conditions": "500 µg/mL, 24 h", "measurement": "cytokine level", "value": "13500 ± 14200 pg/mL"}
